Measured values from different studies.
Each numbered part is a random draw from the data of one study; scales do not carry over between parts. Positions count from the first letter of the parent shown.

Set 1 — technique: protein-binding microarray; form: hairpin DNA; sample: in vitro; tested at: not given; relative to: not given; direction: higher = stronger binding; measurement: median fluorescence
Target: Homeobox protein Hox-B13, full length (HOXB13, Homo sapiens, UniProt Q92826, residues 1-284)
Chain of UniProt Q92826 (whole entry, looked up): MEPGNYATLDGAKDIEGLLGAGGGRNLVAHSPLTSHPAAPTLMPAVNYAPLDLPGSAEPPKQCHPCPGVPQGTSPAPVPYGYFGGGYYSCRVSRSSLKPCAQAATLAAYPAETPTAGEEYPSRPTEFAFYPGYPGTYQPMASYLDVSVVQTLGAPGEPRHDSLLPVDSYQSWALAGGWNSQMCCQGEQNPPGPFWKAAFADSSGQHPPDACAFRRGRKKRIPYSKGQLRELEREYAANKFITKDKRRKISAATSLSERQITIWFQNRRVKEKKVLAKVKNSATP
Setting: whole hairpin DNA, median over replicate spots
Strand = GAGGCCGTTTAACGAGGGCCTCCTGGCCCTCGTTAAACGGCCTCACACTC; result = 4960 a.u.
Strand = GAGGCCGTTTTACGAGGGCCTCCTGGCCCTCGTAAAACGGCCTCACACTC (5mC at 13); result = 5130 a.u.
Strand = GAGGCCGTTTTACGAAGGCCTCCTGGCCTTCGTAAAACGGCCTCACACTC; result = 4320 a.u.
Strand = GAGGCCGTTGTATTGGGGCCTCCTGGCCCCAATACAACGGCCTCACACTC (5mC at 35); result = 4200 a.u.
Strand = GAGGCCGTCGTACGAGGGCCTCCTGGCCCTCGTACGACGGCCTCACACTC (5mC at 9); result = 3960 a.u.
Strand = GAGGCCGTTTAATTGGGGCCTCCTGGCCCCAATTAAACGGCCTCACACTC; result = 5050 a.u.
Strand = GAGGCCGTTTTCGGAGGGCCTCCTGGCCCTCCGAAAACGGCCTCACACTC (5mC at 12); result = 4000 a.u.
Strand = GAGGCCGTTTCACGAGGGCCTCCTGGCCCTCGTGAAACGGCCTCACACTC; result = 4380 a.u.
Strand = GAGGCCGCTTTATTGGGGCCTCCTGGCCCCAATAAAGCGGCCTCACACTC (5mC at 8); result = 4810 a.u.
Strand = GAGGCCGTCGTATTGGGGCCTCCTGGCCCCAATACGACGGCCTCACACTC (5mC at 9); result = 3990 a.u.
Strand = GAGGCCGTTCGACGAGGGCCTCCTGGCCCTCGTCGAACGGCCTCACACTC (5mC at 10); result = 3970 a.u.
Strand = GAGGCCGCGTTATTGGGGCCTCCTGGCCCCAATAACGCGGCCTCACACTC (5mC at 8 36); result = 4460 a.u.
Strand = GAGGCCCGTTTACGAGGGCCTCCTGGCCCTCGTAAACGGGCCTCACACTC (5mC at 7 37); result = 5120 a.u.
Strand = GAGGCCTTTTTACGAGGGCCTCCTGGCCCTCGTAAAAAGGCCTCACACTC; result = 4890 a.u.
Strand = GAGGCCGTTTTCGTGGGGCCTCCTGGCCCCACGAAAACGGCCTCACACTC (5mC at 12 32); result = 3990 a.u.
Strand = GAGGCCGTTTTACCGGGGCCTCCTGGCCCCGGTAAAACGGCCTCACACTC; result = 4280 a.u.
Strand = GAGGCCGTTTTACGAGGGCCTCCTGGCCCTCGTAAAACGGCCTCACACTC (5mC at 31); result = 5470 a.u.
Strand = GAGGCCCTTTTATTGGGGCCTCCTGGCCCCAATAAAAGGGCCTCACACTC (5mC at 7); result = 4760 a.u.
Strand = GAGGCCGTTTTATTCGGGCCTCCTGGCCCGAATAAAACGGCCTCACACTC (5mC at 15); result = 3850 a.u.

Set 2 — cell line: yeast with cyclin D1-Cln2 chimera; observed: cell growth; mode: binder; technique: competitive growth deep sequencing; form: peptide; tested at: concentration not given; setting: peptide tiling library; direction: direction not given; measurement: growth enrichment score
Sequence = KPITLDTTDFQESFVT; result = 1.14
Sequence = DTERAHSTLDEDLERW; result = 1.16
Sequence = FREFEVEKQTAEETGL; result = 1.76
Sequence = PAKRRLELGE; result = -0.125
Sequence = DSDSDSEGGAAGGEAD; result = 1.04
Sequence = PLRKAKRARLCSSSSS; result = -0.18
Sequence = SCCKRKLVVGNGPEGP; result = -0.803
Sequence = IVLICAKRSLCAAFSV; result = -0.974
Sequence = AIRKMREDRWAVIAKM; result = 0.514
Sequence = PARRRLRLSVDEVSSP; result = -0.864
Sequence = NARRSLNFGGSTGT; result = 0.101
Sequence = GQLVIPLDELTLDTSF; result = 1.72
Sequence = ESSQLTVQAEFDMSAI; result = 1.07
Sequence = SAVPLILPQAPSGPSY; result = 1.51

Set 3 — technique: DHFR PCA, deep sequencing; sample: yeast; together with: (+)-ABA 1.4 µM; relative to: wild-type fitted maximum; direction: higher = stronger binding; measurement: relative binding score
Target: ABI1, truncated, D143A, DHFR fusion (Arabidopsis thaliana)
Setting: methotrexate growth selection, single substitutions
Starting sequence: PYL1, truncated, DHFR fusion (Arabidopsis thaliana); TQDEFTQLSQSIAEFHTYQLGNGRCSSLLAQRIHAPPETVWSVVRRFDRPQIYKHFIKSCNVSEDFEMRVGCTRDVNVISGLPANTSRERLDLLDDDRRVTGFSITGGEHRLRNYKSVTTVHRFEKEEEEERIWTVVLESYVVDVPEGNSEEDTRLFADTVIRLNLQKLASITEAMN
Change = H55E; result = 46.5%
Change = I12T; result = 3.1%
Change = E152P; result = -14.6%
Change = W41L; result = -6.02%
Change = T17W; result = -23%
Change = L138C; result = 19.2%
Change = I172K; result = -6.22%
Change = T173V; result = 45.1%
Change = D97N; result = 62.5%
Change = R155D; result = -41.6%
Change = R69M; result = 44.1%
Change = R113T; result = 54%
Change = Q31P; result = -9.13%
Change = F66S; result = 29.5%
Change = V121P; result = 5.01%
Change = A35K; result = -27%
Change = Q7Y; result = 63.1%
Change = C72R; result = 5.63%

Set 4 — technique: universal PBM; form: double-stranded DNA, one strand shown; sample: in vitro; tested at: not given; direction: higher = stronger binding; measurement: E-score
Target: Sal-like protein 4, full length isoform B (SALL4, Homo sapiens, UniProt Q9UJQ4-2, residues 1-616)
Setting: 8-mer, flanks averaged, mean of replicates
Strand = CACATGTG; result = 0.0506
Strand = TACCTCCA; result = 0.0139
Strand = TCCTGCAA; result = 0.0493
Strand = AGGTGCAT; result = 0.00626
Strand = ACGGGACC; result = -0.288
Strand = ACTCTGAC; result = -0.0616
Strand = CCTGATCA; result = 0.0574
Strand = ACCAAGCC; result = -0.059
Strand = TGTCTCAA; result = 0.0917
Strand = AGATCCAA; result = -0.0564
Strand = CAGGAGGC; result = -0.216
Strand = CCCCGGAG; result = -0.362
Strand = ACTGTTGC; result = 0.0254
Strand = ACCCTGAG; result = -0.309
Strand = CATCTCGA; result = 0.0447
Strand = CAAACATC; result = 0.056
Strand = AAATCGAG; result = 0.0752
Strand = CTCAGTCC; result = -0.2
Strand = AATGCAGT; result = -0.00258
Strand = GCGGGAAA; result = -0.0258
Strand = CTCATCTC; result = -0.0353
Strand = ATAGATCA; result = 0.234
Strand = TCTATCAA; result = 0.194
Strand = CAACACGC; result = -0.039
Strand = ATTTTCAA; result = 0.293

Set 5 — technique: RNA Bind-n-Seq; form: RNA; sample: in vitro; tested at: not given; relative to: input RNA pool; direction: higher = stronger binding; measurement: bound/input enrichment
Target: RING finger protein unkempt homolog, zinc fingers 1-6, GST-SBP tag (UNK, Homo sapiens, UniProt Q9C0B0, residues 30-357)
Setting: RNA with constant flanks, human and mouse sites, ends assumed
Construct (chain): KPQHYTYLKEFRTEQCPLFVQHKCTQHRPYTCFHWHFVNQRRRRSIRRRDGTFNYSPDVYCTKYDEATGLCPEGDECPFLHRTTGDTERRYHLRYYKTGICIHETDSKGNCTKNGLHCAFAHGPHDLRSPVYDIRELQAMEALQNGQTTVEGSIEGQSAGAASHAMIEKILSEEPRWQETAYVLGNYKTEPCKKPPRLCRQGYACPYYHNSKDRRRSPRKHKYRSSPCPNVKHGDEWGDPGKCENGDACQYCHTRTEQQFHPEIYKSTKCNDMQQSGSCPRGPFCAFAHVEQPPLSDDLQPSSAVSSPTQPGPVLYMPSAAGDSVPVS
Strand = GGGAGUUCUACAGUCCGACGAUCAUCAGAAAUCUUUUUAGAGAAGCAAAAGCAAAUGCUCCUUGUGUUAUAUUCAUCGAUGAAUUAGAUUCUGUUGGUGGAAAGAGAAUUGAAUCUCCAAUGCACCCGUAUUCAAGGCAGACGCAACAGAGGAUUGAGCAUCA; result = 0.6 ratio
Strand = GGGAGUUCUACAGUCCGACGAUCGGUGAAGUUCAGUUGGUUCGUCAUAAGGCAUCACAGAAGGUUUAUGCAAUGAAGCUUCUUAGUAAAUUUGAAAUGAUAAAAAGAUCAGAUUCUGCUUUUUUCUGGGAAGAAAGAGAUAUUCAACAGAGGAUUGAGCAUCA; result = 3.26 ratio
Strand = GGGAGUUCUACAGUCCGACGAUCAGGAUGAAUCGGACAGAUUCAGAAAUAUAUGAAGAUGCAGUAGAACUUCAGCAGUUUUUUAUUAAAAUUCGUGAUGAACUCUGCAAAAAUGGAGAGAUUCUUCUUUCACCGGCACUCAGCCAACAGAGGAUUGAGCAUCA; result = 0.183 ratio
Strand = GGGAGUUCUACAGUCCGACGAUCUUUAAUGUAUAAAGAUUUUCUAGGAAAUGAUAUUGUGUAUUAAGACAUUCCUUAAUUAAAUUAGGACAAAAUGGCUGCUGUAUAUUUACAAUAUGGAAUUCUGAGUUAAGUACCGCCCUUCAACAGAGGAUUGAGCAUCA; result = 0.411 ratio
Strand = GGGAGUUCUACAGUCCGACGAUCACAGAUAAAGACGCAACAUGAAAGACUUGUAAGUUAAGUCUCAUCUUUCUCUGUGAAAAGACAGACUGAGGGAAAAUUUAGGAAACAAAGUAUUUCCUCUGAACAGUCAUUGAUUCUUCACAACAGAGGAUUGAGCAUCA; result = 0.454 ratio
Strand = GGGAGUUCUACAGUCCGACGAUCGGCUGCUGGUGACUGUCCUGGAGUGGCUGGAGUUCCCGCCGGAGCGCGGCCAGACUAAUUUUAGAAAAUGCCAAGUAGGAAGUUUGUUGAGGGUGAAGUGGUCAGAGGCCGAUGGCCUGGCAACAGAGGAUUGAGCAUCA; result = 6.49 ratio
Strand = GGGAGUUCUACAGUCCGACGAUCGAACUCCUCAUGCACCCUGUGCUGGAGUCCCUGAGGAAUACUGACCGGCAGUGGCUGAUUGACACCCUCUAUGCCUUCAACAGUGGCAACGUAGAGCGGUUCCAGACUCUGAAGACUGCCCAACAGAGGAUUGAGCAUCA; result = 0.079 ratio
Strand = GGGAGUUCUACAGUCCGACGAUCGGAAUAGCGGUGCUUGCAGUGCCUGUGGACAGUCGAUUCCUGCAAGUGAGCUCGUCAUGAGGGCCCAAGGCAACGUGUAUCAUCUCAAGUGUUUCACAUGUUCUACCUGCCGGAAUCGCCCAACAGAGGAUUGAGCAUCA; result = 0.126 ratio
Strand = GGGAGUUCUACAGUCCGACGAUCUGUUUCUUCUGCAUCUGGAAGGGCGUCAGGUCCACUGGGAAGGUCGUCUACUUCACAGCCACUUUUCCAUUCGCCAUGCUCCUGGUGCUGCUGGUCCGAGGGCUGACGCUGCCGGGCGCGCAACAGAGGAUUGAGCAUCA; result = 0.106 ratio
Strand = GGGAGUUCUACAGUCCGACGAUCAUGCGUGCUGCUGGAAGGCUCUCCGUUUCUCCGAGAACCGGGAAGGACGUUGGUGUAGAGGACAUUGGCUACCAUGAGUUCCGGUGCGCUGUUGCCCAAACCACAGAUGCGUGGUCUUCUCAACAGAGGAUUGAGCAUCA; result = 0.0579 ratio
Strand = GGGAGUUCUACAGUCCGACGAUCCCGGGCUCAGGGCUCGUUCUGGUCUGCCUAGUCCUGGGAGCUGUGCGGUCUUAUGCAUUGGAACUUAAUUUGACAGAUUCAGAAAAUGCCACUUGCCUUUAUGCAAAAUGGCAGAUGAAUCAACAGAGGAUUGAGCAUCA; result = 0.134 ratio
